Published values of several laboratories.
“And” joins repeats or separate records; there may be more than shown.
Target: Interferon-induced, double-stranded RNA-activated protein kinase (EIF2AK2, Homo sapiens, UniProt P19525)

For `C=CC(=O)N1CCc2ccc(-n3c(=O)ccc4cnc5ccc(-c6cnn(C)c6)cc5c43)cc21`, the remaining binding was 100% (KINOMEscan; 1 µM; reference: DMSO control).
The remaining binding of `CCN1CCN(Cc2ccc(C(=O)Nc3ccc(C)c(NCc4cnc5[nH]ccc5c4OC)c3)cc2C(F)(F)F)CC1` is reported as 92% (binding, competition with immobilised ligand; 1 µM).
For `COc1cc(Nc2nccc(-c3cnn4nc(OC)ccc34)n2)cc(C(F)(F)F)c1`, the remaining binding was 100% (binding, competition with immobilised ligand; 1 µM).
`COCC12C(=O)NC3C4(C(OC)CC1O)C1CC5(O)C(OC)C(O)C(OC(C)=O)(C1C5OC(=O)c1ccccc1)C3(O)C(OC)C24` (stereo not shown) gave a remaining activity of 84% and 104% (kinase activity, inhibitor, ProQinase kinase profiling; 25 µM; reference: control).
`Cc1ccc(-c2c(/C=C(\C#N)C(=O)NC(C)C)n(CCCO)c3ncnc(N)c23)cc1` has a remaining binding of 100% (cell-free assay, competition with immobilised ligand; 1 µM).
For `CCn1cc(C(=O)O)c(=O)c2c(N)c(F)c(NC3CCCCC3)cc21`, the inhibition was 6.2% (kinase activity; 0.1 µM, together with: ATP at Km).
Under “log2 LFQ intensity”, `N[C@H]1CC[C@H](Nc2nccc(-c3cccnc3Oc3ccc(NC(=O)NC4CC4)c4ccccc34)n2)CC1` is recorded as 24 and 24.3 (kinobead competition pulldown; HEK293/HCT116 lysate mixture; 10 µM, 1 h, 4 °C; lower = stronger competition).
`COc1c(Cl)cccc1Nc1c(-c2ccncc2C#C[C@@]2(C)CCCN2C(=O)/C=C/CN(C)C)[nH]c2c1C(=O)NCC2` gave a remaining binding of 97% (binding, competition with immobilised ligand; 3 µM).
`CN1CCN(Cc2ccc(-c3ccc(CO[C@H]4CCC[C@@H]4NC(=O)c4cc(-c5cnn(C)c5)cnc4N)cc3)cc2)CC1` gave an inhibition of -2% (enzyme activity, inhibitor; 0.1 µM).
With `Nc1ncc2c(n1)-c1c([nH]c3ccc(C4=CCOCC4)cc13)CCC2` the remaining binding was 100% (binding, competition with immobilised ligand; 1 µM).
`O=C(Cc1ccc(OCc2ccccc2)cc1)NC1(C(=O)O)CCN(C(=O)c2ccc(-c3cccc(Cl)c3)cc2)CC1`: “activity vs control” 95% (enzyme activity, inhibitor; 10 µM).
`C=CC(=O)N1CCCC(n2c(=O)c3ncccc3n(Cc3ccc(Oc4ccccc4)cc3)c2=O)C1` (stereo not shown) gave a remaining binding of 87% (cell-free assay, competition with immobilised ligand; 1 µM).
For `Cc1cc(NC(=O)[C@H](O)c2cc(F)cc(F)c2)ccc1-c1cnc(N)c(C(=O)NC(C)C)c1`, the remaining binding was 100% (binding, competition with immobilised ligand; 1 µM).
For `CC(C)=CC1OC(C)(C)C2C=C3C(=O)C(Cl)=CC(O)C3C3C(O)C4OC4C(=O)C132` (stereo not shown), the remaining binding was 100% (cell-free assay, competition with immobilised ligand; 10 µM).
`CNC1C[S+]2CC[S+]3CC[S+](C1)[Ru-4]321([N]=C=S)[n]2c3ccc(OC)cc3c3c4c(c5cc(F)c[n+]1c5c32)C(=O)NC4=O` (stereo not shown) has a remaining binding of 68% (KinomeScan; 0.1 µM; reference: untreated).
`Cc1cnc2nc1Nc1cccc(c1)COC/C=C/COCc1cc(ccc1OCCN1CCOCC1)N2` has a binding of 91% (concentration not given, kinase construct PRKR; reference: control).
For `CNC(=O)C1CCN(c2cc(C)c(F)cc2NC(=O)c2ccc(-c3cc(O)ccc3C)c(C)c2)CC1`, the remaining binding was 100% (binding, competition with immobilised ligand; 1 µM).
With `CN1CC[C@@H](COc2cnc(C#N)cc2-c2ccn3nc(NC(=O)C4CC4)cc3c2)C1` the inhibition was -11% (enzyme activity, inhibitor; 1 µM).
`COc1cc(Nc2nc(C)cc(-c3cnn4nc(OC)ccc34)n2)cc(C(F)(F)F)c1` has a remaining binding of 100% (KINOMEscan; 1 µM, PRKR; reference: DMSO).

Some of these lines once more:
For `COc1cc(Nc2nccc(-c3cnn4nc(OC)ccc34)n2)cc(C(F)(F)F)c1`, the remaining binding was 100% (binding, competition with immobilised ligand; 1 µM).
